Measurements gathered from unrelated publications.
± gives the spread as reported.
MAPK8: Mitogen-activated protein kinase 8 (MAPK8, Homo sapiens, UniProt P45983)
Chain of UniProt P45983 (whole entry, looked up): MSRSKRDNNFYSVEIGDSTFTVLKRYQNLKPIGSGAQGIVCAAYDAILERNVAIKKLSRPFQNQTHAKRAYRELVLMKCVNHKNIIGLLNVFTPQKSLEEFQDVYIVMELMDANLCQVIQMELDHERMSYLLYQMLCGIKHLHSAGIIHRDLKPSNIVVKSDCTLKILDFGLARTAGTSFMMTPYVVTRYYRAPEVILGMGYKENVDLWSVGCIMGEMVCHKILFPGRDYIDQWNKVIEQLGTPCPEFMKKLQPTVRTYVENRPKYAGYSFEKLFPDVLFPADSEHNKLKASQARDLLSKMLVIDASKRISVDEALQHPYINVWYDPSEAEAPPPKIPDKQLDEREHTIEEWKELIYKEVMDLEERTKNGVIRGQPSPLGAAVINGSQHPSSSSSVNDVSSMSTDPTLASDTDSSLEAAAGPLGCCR
MAOA: Amine oxidase [flavin-containing] A (MAOA, Homo sapiens, UniProt P21397)
Chain of UniProt P21397 (whole entry, looked up): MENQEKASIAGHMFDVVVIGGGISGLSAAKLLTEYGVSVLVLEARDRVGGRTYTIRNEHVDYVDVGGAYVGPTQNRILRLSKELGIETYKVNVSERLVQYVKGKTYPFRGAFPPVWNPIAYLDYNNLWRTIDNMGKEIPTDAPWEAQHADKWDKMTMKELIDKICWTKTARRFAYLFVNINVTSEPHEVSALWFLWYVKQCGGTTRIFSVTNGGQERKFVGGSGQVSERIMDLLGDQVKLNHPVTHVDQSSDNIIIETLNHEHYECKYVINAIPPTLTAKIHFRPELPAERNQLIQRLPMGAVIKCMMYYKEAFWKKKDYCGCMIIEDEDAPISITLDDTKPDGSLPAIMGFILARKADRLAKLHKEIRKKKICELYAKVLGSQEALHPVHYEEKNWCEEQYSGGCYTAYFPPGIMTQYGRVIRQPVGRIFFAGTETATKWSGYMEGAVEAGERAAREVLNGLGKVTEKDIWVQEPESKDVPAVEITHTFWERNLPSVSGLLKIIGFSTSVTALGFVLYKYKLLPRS
Cereblon/Ikaros: Cereblon/Ikaros (Homo sapiens, UniProt Q13422+Q96SW2)
IL1RL2: Interleukin-1 receptor-like 2 (IL1RL2, Homo sapiens, UniProt Q9HB29)
Chain of UniProt Q9HB29 (whole entry, looked up): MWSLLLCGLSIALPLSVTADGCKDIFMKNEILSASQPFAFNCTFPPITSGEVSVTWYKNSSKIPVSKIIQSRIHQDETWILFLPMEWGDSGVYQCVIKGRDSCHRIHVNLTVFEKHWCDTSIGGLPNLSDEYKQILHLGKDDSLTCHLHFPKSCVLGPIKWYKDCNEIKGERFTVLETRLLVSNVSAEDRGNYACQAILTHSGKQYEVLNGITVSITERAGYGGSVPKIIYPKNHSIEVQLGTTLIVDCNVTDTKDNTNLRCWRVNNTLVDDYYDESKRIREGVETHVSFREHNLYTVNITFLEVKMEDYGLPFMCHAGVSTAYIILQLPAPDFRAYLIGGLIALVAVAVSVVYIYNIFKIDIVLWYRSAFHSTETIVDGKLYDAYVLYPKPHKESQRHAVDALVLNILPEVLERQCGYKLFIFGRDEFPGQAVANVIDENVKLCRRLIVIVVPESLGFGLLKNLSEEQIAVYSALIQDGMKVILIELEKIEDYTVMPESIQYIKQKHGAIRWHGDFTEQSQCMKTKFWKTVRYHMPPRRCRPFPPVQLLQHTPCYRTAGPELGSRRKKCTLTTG
ATR: Serine/threonine-protein kinase ATR (ATR, Homo sapiens, UniProt Q13535)
Chain of UniProt Q13535 (whole entry, looked up): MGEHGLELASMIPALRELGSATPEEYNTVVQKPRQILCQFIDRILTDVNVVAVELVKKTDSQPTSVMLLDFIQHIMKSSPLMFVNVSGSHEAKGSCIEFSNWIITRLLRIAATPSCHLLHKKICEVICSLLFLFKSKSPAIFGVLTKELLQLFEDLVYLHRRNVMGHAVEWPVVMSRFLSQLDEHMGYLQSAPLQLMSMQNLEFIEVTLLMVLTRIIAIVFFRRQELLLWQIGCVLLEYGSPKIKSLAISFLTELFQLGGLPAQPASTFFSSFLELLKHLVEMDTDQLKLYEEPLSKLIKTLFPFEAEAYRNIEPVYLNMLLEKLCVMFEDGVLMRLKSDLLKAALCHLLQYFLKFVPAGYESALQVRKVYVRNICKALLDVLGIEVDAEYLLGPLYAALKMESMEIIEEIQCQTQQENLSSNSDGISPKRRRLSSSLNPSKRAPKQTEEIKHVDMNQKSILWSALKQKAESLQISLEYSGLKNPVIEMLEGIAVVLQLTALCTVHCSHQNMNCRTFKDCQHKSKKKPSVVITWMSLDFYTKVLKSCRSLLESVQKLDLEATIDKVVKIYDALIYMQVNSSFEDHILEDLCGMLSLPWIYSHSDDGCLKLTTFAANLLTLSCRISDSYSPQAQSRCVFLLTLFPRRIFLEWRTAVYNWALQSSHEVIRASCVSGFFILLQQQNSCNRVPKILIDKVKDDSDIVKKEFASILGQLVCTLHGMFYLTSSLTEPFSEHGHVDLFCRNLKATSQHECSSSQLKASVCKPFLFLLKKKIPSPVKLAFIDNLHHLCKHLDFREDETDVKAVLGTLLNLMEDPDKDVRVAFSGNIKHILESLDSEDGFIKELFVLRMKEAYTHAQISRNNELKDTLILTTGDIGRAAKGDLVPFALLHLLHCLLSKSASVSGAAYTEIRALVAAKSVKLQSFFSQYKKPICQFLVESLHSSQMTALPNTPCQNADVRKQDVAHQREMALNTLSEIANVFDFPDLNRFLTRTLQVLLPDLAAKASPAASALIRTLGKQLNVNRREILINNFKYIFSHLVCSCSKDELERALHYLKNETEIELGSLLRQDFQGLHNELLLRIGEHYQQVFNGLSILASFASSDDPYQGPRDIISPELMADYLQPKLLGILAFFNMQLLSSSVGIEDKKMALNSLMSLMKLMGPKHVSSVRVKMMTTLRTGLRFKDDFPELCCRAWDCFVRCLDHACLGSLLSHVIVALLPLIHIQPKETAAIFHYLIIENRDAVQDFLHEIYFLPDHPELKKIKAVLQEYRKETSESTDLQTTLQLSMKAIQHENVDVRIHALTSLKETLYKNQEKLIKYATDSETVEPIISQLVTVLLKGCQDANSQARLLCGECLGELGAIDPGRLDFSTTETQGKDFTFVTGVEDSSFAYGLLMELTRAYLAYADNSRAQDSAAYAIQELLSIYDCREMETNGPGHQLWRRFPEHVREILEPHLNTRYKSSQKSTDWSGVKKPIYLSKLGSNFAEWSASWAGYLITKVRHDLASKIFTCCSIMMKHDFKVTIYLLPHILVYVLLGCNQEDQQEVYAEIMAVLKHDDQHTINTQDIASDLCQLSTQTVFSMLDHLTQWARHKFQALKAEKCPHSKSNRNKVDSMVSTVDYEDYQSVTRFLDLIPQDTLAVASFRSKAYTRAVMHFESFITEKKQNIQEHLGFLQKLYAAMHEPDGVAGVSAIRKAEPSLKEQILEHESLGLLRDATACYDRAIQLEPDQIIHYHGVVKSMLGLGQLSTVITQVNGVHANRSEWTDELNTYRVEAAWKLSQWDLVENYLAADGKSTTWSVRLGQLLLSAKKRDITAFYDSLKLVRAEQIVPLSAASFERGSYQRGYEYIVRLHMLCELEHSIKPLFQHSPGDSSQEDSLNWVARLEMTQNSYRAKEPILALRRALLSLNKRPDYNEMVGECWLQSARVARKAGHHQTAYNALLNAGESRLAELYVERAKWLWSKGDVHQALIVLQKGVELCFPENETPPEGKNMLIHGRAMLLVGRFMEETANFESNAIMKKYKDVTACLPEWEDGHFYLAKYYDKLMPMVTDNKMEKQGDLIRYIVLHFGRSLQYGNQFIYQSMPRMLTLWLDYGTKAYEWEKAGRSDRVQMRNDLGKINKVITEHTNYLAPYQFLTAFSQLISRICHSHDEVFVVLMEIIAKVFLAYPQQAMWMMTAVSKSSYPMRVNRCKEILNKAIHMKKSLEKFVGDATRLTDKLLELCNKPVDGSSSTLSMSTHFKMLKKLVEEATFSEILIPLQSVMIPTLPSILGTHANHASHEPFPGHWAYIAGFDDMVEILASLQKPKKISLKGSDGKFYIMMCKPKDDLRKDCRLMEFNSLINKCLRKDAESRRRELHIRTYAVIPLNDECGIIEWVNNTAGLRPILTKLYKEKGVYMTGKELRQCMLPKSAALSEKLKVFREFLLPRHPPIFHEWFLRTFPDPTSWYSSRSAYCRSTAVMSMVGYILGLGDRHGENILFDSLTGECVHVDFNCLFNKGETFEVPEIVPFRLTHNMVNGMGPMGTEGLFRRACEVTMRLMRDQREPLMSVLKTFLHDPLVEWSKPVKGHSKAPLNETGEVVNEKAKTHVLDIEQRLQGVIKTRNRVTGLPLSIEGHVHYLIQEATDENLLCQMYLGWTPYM
Chain of UniProt P55210 (whole entry, looked up): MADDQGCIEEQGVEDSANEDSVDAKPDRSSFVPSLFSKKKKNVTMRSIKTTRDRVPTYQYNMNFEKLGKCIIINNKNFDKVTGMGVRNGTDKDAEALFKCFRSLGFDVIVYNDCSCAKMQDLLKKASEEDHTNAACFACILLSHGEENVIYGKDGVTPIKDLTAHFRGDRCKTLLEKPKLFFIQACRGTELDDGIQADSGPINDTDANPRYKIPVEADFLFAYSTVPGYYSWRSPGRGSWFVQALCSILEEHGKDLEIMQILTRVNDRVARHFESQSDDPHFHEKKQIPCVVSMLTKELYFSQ
Chain of UniProt O43781 (whole entry, looked up): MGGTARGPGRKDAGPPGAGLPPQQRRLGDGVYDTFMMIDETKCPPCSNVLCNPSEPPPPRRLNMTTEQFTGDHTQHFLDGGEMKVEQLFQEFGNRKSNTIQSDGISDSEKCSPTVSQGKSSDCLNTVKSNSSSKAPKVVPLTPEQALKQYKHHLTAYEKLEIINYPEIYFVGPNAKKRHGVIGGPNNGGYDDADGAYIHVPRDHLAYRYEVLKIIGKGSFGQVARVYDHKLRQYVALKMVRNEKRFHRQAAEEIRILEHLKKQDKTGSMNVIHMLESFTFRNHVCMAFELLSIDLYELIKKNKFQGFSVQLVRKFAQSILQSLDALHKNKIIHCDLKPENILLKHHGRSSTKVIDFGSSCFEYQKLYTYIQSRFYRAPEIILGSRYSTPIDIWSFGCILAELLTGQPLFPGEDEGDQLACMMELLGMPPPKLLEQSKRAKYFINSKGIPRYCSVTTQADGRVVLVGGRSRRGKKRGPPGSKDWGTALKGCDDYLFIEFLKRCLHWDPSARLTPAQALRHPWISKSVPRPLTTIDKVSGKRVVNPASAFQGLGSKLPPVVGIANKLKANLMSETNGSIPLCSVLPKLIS

The remaining activity of `COC(=O)[C@@]1(C(C)C)C=C(C(=O)Nc2cccc(C(=O)Nc3ccc(Nc4nccc(-c5cccnc5)n4)c(C)c3)c2)C(=O)CC1` is reported as 0.081 (MAPK8; kinase activity, inhibitor; 44.44 µM, unit not given, together with: 10 mM glutathione; baseline: no inhibitor).
For `Cn1cnnc1Sc1c2c(c(C#N)c3nc4ccccc4n13)CCCC2`, the remaining activity was 99.9 ± 8.5% (MAOA; 100 µM).
With `CCOc1ccc(C(=O)/C=C/c2ccc(C(C)C)cc2)cc1` the remaining activity was 45.9% (MAOA; enzyme activity, inhibitor; 10 µM).
The remaining activity of `O=C1CCC(N2C(=O)c3cccc4c(Cc5cnn(C6CCN(C(=O)C7(O)CC7)CC6)c5)ccc2c34)C(=O)N1` (stereo not shown) is reported as 79.6% (Cereblon/Ikaros; protein level, degrader, western blot; NCI-H929; 100 pM, 4 h).
`COc1ccccc1-c1ccncc1C(=O)Nc1nnc(OCc2ccc(Cl)cc2)s1` gave a remaining activity of 22% (DNA polymerase theta, helicase domain (POLQ, Homo sapiens, UniProt O75417); ATPase activity, ADP-Glo; 0.48 µM; baseline: 0 µM cpd).
For `CC(C)[C@@H]1NC(=O)[C@H](Cc2ccccc2)NC(=O)CSC[C@@H](C(N)=O)NC(=O)[C@H](CCC(=O)O)NC(=O)[C@H](CO)NC(=O)[C@H](Cc2c[nH]c3cccc(Cl)c23)NC(=O)[C@H](C2CCCCC2)NC(=O)[C@H](C(C)C)NC(=O)[C@H](Cc2ccc(O)cc2)NC(=O)[C@H](CC(=O)O)NC(=O)[C@H](Cc2c[nH]c3ccccc23)NC(=O)[C@H](Cc2ccc(N)nc2)NC(=O)[C@H](Cc2c[nH]c3ccc(Cl)cc23)NC(=O)[C@H](CCC(=O)O)NC1=O`, the remaining activity was 8.6% (IL1RL2; reporter gene (SEAP), inhibitor, HEK-Blue IL-36R reporter; HEK-Blue IL-36R cells; 0.14 µM, 6 h, together with: IL-36γ 0.03 ng/mL).
`O=S(=O)(O)c1cc(N=C=S)ccc1/C=C/c1ccc(N=C=S)cc1S(=O)(=O)O` has a remaining activity of 16.8% (DCLRE1A (Homo sapiens, UniProt Q6PJP8); exonuclease activity, inhibitor, fluorescence HTS; 10 µM, 80 min, together with: 8 nM 5P-FQ substrate).
For `O=C=[N][Ru-4]123([n]4c5ccc(O)cc5c5c6c(c7cc(F)c[n+]1c7c54)C(=O)NC6=O)[S+]1CC[S+]2CC[S+]3CC1` (stereo not shown), the remaining activity was 95% (Mapk1 (Mus musculus, UniProt P63085); enzyme activity; 100 nM, mouse enzyme, together with: 10 µM ATP; baseline: untreated).
`O=C1CCC(N2C(=O)c3cccc4c(Cc5cnn(C6CCNCC6)c5)ccc2c34)C(=O)N1` (stereo not shown) gave a remaining activity of 21.3% (Cereblon/Ikaros; protein level, degrader, western blot; NCI-H929; 10 nM, 4 h).
`C[C@](C(=O)NC1CCOCC1)(c1cncnc1)N(C(=O)[C@H](F)Cl)c1ccc(OC(F)(F)Cl)cc1` gave a remaining activity of 110% (Caspase-7 (CASP7, Homo sapiens, UniProt P55210); enzyme activity, inhibitor; 10 µM).
The remaining activity of `Cc1ccc(C)c(-c2ccc3nc(NC(=O)C4CCCCC4)nn3c2)c1` is reported as 4% (DYRK3 (Homo sapiens, UniProt O43781); enzyme activity, Dundee kinase panel; 10 µM).
With `COC(=O)[C@@]1(C)C=C(C(=O)Nc2cccc(C(=O)Nc3ccc(Nc4nccc(-c5cccnc5)n4)c(C)c3)c2)C(=O)CC1` the remaining activity was 0.965 (MAPK8; enzyme activity, inhibitor; 2.79e-05 µM, 6 h, unit not given, together with: GSH 10 mM pre-incubation; baseline: vehicle).
`N#Cc1cnc2sc(C(=O)O)cc2c1N1CCc2[nH]nc(C(=O)N[C@@H](CC(=O)NCCOCCN3CCOCC3)c3cccc(Br)c3)c2C1` gave a remaining activity of 103% (IL1RL2; SEAP reporter gene, antagonist; HEK-Blue IL-36R cells; 100 µM, 6 h, together with: IL-36β 0.003 ng/mL; baseline: untreated).
For `O=C1CCC(N2C(=O)c3cccc4c(Cc5ccc(CN6CCNCC6)nc5)ccc2c34)C(=O)N1` (stereo not shown), the remaining activity was 51.7% (Cereblon/Ikaros; protein level, degrader, western blot; NCI-H929; 10 nM, 4 h).
`O=c1c(-c2ccc(Cl)c(CN3CCOCC3)c2)coc2cc(O)ccc12` gave a remaining activity of 103% (ATR; enzyme activity, inhibitor, KinaseProfiler; 1 µM, together with: ATP at Km).
The remaining activity of `CC(C)(O)C(=O)N1CCC(n2cc(Cc3ccc4c5c(cccc35)C(=O)N4C3CCC(=O)NC3=O)cn2)CC1` (stereo not shown) is reported as 5.63% (Cereblon/Ikaros; protein level, degrader, western blot; NCI-H929; 10 nM, 4 h).
`O=C(Cc1ccc(OCc2ccccc2)cc1)NC1(C(=O)O)CCN(C(=O)c2ccc(-c3cccc(Cl)c3)cc2)CC1` gave a remaining activity of 103% (ATR; kinase activity, inhibitor; 10 µM, together with: ATP at Km).
With `O=C1CCC(N2C(=O)c3cccc4c(Cc5cnn(C6CCN(C(=O)C7(O)CCC7)CC6)c5)ccc2c34)C(=O)N1` (stereo not shown) the remaining activity was 4.32% (Cereblon/Ikaros; protein level, degrader, western blot; NCI-H929; 10 nM, 4 h).
With `CN1C[C@@H](c2c[nH]c3cc(Br)ccc23)NC[C@@H]1c1c[nH]c2cc(Br)ccc12` the remaining activity was 92% (Cyclin-dependent kinase 12, with cyclin K (CDK12, Homo sapiens, UniProt Q9NYV4); enzyme activity, inhibitor; 10 µM).
For `O=C1CCC(N2C(=O)c3cccc4c(Cn5cc(C6CCNCC6)nn5)ccc2c34)C(=O)N1` (stereo not shown), the remaining activity was 87.5% (Cereblon/Ikaros; protein level, degrader, western blot; NCI-H929; 1 nM, 4 h).
`COc1cc(C(=O)/C=C/c2ccc(C(C)C)cc2)cc(OC)c1OC` has a remaining activity of 83.3% (MAOA; enzyme activity, inhibitor; 10 µM).
`O=C1CCC(N2C(=O)c3cccc4c(Cc5cnn(C6CCN(C(=O)CS)CC6)c5)ccc2c34)C(=O)N1` (stereo not shown) gave a remaining activity of 98.7% (Cereblon/Ikaros; protein level, degrader, western blot; NCI-H929; 1 nM, 4 h).
`Nc1ncc(-c2cc(-c3cnn(CC(F)(F)F)c3)ncc2F)nc1C(=O)NC1CNCC(F)C1` (stereo not shown) gave a remaining activity of 96.1% (Cyclin-dependent kinase 4, with cyclin D1 (CDK4, Homo sapiens, UniProt P11802); enzyme activity; 1 µM; baseline: DMSO control).
`O=C1CCC(N2C(=O)c3cccc4c(Cc5cnn(C6CCN(C(=O)CO)CC6)c5)ccc2c34)C(=O)N1` (stereo not shown) has a remaining activity of 14.2% (Cereblon/Ikaros; protein level, degrader, western blot; NCI-H929; 10 nM, 4 h).
`COC1CN([C@H]2CC[C@H]([C@@]3(C)Oc4c(Cl)cc(C(=O)NCc5c(SC)cc(C)[nH]c5=O)c(C)c4O3)CC2)C1`: “log2 fold change” 7.38 (RNA-seq, measured: CREB3L1; human, whole blood; dose not given, 24 h; baseline: pretreatment baseline).

Repeated from above:
`COc1cc(C(=O)/C=C/c2ccc(C(C)C)cc2)cc(OC)c1OC` has a remaining activity of 83.3% (MAOA; enzyme activity, inhibitor; 10 µM).
`O=C1CCC(N2C(=O)c3cccc4c(Cc5cnn(C6CCN(C(=O)CS)CC6)c5)ccc2c34)C(=O)N1` (stereo not shown) gave a remaining activity of 98.7% (Cereblon/Ikaros; protein level, degrader, western blot; NCI-H929; 1 nM, 4 h).
`Nc1ncc(-c2cc(-c3cnn(CC(F)(F)F)c3)ncc2F)nc1C(=O)NC1CNCC(F)C1` (stereo not shown) gave a remaining activity of 96.1% (Cyclin-dependent kinase 4, with cyclin D1 (CDK4, Homo sapiens, UniProt P11802); enzyme activity; 1 µM; baseline: DMSO control).
`O=C1CCC(N2C(=O)c3cccc4c(Cc5cnn(C6CCN(C(=O)CO)CC6)c5)ccc2c34)C(=O)N1` (stereo not shown) has a remaining activity of 14.2% (Cereblon/Ikaros; protein level, degrader, western blot; NCI-H929; 10 nM, 4 h).
